Experimental data from different studies.
Lines come from different studies, so protocols differ. Numbers after ± are the reported error. Bridge positions count the residues as written; N and C are the ends. Square brackets hold non-standard residues; d marks the D form. Where no end group is shown, it is not given here. Ends that are not written are not given here. [ ]: non-standard residue; d: D form.
PLAU: PLAU (Homo sapiens, UniProt P00749)
T1: cbrB residues 1-475 (Pseudomonas fluorescens); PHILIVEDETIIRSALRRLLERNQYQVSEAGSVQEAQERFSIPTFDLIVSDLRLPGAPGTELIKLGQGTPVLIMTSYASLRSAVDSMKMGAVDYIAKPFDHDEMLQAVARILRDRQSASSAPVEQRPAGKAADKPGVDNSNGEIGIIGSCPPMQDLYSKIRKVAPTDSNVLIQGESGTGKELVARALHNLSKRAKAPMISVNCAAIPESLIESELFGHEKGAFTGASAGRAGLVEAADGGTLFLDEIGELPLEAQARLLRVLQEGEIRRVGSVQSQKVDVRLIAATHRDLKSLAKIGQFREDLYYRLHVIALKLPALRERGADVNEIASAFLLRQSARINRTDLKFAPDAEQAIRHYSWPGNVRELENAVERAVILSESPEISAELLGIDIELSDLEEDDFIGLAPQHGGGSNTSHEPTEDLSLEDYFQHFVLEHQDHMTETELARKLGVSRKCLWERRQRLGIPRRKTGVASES
Chain of UniProt P00730 (whole entry, looked up): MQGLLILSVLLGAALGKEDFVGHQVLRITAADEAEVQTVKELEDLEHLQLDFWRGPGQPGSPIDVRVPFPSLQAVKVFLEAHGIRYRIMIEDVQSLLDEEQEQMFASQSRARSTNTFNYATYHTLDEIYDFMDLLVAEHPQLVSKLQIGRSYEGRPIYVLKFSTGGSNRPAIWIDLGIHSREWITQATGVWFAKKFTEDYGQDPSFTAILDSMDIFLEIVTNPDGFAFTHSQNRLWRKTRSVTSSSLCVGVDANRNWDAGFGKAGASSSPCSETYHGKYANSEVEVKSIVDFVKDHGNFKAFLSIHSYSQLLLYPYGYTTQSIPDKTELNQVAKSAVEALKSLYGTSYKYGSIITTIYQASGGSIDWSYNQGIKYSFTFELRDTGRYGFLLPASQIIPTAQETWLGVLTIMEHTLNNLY
Chain of UniProt O15392 (whole entry, unmodified, looked up): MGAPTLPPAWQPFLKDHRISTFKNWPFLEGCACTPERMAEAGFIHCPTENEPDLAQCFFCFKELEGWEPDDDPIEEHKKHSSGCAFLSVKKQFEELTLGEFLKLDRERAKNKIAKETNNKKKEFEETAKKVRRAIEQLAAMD
Chain of UniProt P43403 (whole entry, looked up): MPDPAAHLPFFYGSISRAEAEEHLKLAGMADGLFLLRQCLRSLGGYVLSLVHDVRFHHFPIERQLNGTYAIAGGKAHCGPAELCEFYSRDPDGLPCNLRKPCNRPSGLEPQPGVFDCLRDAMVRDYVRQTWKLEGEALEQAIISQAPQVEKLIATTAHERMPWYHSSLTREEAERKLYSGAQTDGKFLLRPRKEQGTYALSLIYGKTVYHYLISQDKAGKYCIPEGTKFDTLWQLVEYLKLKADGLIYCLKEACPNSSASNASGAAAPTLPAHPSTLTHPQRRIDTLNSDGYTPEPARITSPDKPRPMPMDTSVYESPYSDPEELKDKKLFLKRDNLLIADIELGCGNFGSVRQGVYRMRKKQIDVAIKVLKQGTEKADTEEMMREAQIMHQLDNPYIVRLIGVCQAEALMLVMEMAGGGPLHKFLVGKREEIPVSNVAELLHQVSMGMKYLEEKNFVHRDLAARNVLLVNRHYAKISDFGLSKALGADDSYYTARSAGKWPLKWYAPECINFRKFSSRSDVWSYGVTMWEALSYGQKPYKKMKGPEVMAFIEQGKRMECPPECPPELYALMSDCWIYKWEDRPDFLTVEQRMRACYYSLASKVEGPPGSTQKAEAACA

| Substance | tested on | assay | test system | conditions | scale | quantity | result |
| --- | --- | --- | --- | --- | --- | --- | --- |
| YKV[hTyr][NMehTyr]I (anabaenopeptin 915; lactam 2-C (inferred); also: Tyr1 joined to Lys2 via CO (ureido) bond; hTyr = N[C@@H](CCc1ccc(O)cc1)C(=O)O; NMehTyr = CN[C@@H](CCc1ccc(O)cc1)C(=O)O) | Carboxypeptidase A1 (CPA1, Bos taurus, UniProt P00730) | enzyme activity, inhibitor | – | pH 7.5, together with: hippuryl-L-phenylalanine 1 mM | – | IC50 | 0.12 µg/mL |
| CNCKAPETALCARRCQQH-NH2 (Apamin; disulfide 1-11, 3-15; sequence looked up) | E3 ubiquitin-protein ligase Mdm2, residues 25-109 (MDM2, Homo sapiens, UniProt Q00987) | SPR competition | peptide, synthetic MDM2 (25-109) | together with: immobilized p53 (15-29) | – | Kd | no binding |
| CGNQL[pY]NELNLGRREE (CD247 residues 69-82; phosphotyrosine; pY = N[C@@H](Cc1ccc(OP(=O)(O)O)cc1)C(=O)O) | ZAP70 1-606 (Homo sapiens, UniProt P43403) | competition with labelled peptide, fluorescence polarisation | peptide | – | – | Ki | 125000 nM |
| VLRKTRHVNIALFMG (BRAF 504-518 L514A) | BRAF kinase domain with dimer interface | fluorescence titration | peptide | – | – | Kd | 1020 ± 140 nM |
| cholecystokinin octapeptide | rat pancreatic acini | item: Yes kinase pY416 | – | 100 nM, 1 min, calcium-free medium | reference: untreated | phosphorylation level | 261 ± 32% |
| RmS-6, glycosylated (Rhipicephalus microplus) | PLAU | chromogenic substrate hydrolysis, inhibitor | – | 1 µM | – | protease inhibition | < 20% |
| MoaA peptide (Staphylococcus aureus) | moaA E97A/G340A (Staphylococcus aureus, UniProt P69848) | MoaA/MoaC coupled assay | – | 200 µM | reference: 8-mer peptide, higher = more activity | restored activity | > 5 fold |
| TATCAACACTCTTTTCTTTTATGATATTTAATAGTTATTGCAAATTCATTGCTAACTTTCTTAACACGTTTTATAATAAACGGAGAGTTATCCGTTTGTCAATTTTAGAGAATTTTAAGTAGGTGTAATCATGCGAAAAGATGCAAAAGA (dsDNA) | gbaA 1-185 (Staphylococcus aureus COL, UniProt Q5HCX3) | EMSA | double-stranded DNA, one strand shown | – | – | Kd | 15.2 nM |
| GVLRKTRHVNILIFMGYST (BRAF 503-521 L515I) | BRAF kinase domain with dimer interface | fluorescence titration | peptide | – | – | Kd | 4100 ± 1100 nM |
| RmS-17, glycosylated (Rhipicephalus microplus) | F11 factor XIa (Homo sapiens) | chromogenic substrate hydrolysis, inhibitor | – | 1 µM | – | protease inhibition | 98% |
| GCVRLHESCLGQQVPCCDPAATCYCESRGDVVRKCYCR (AgRP variant) | ITGAV/ITGB3 whole, on cells (Homo sapiens) | competition with labeled echistatin, radioligand binding | designed binder, U87MG | 3 h, room temperature, together with: 125I-echistatin 0.06 nM | – | IC50 | 410 nM |
| GVLRKDRHVNILLFMGYST (BRAF 503-521 T508D) | BRAF kinase domain with dimer interface | fluorescence titration | peptide | – | – | Kd | 2200 ± 830 nM |
| MENVKKATATTTWMVPTAQ (L3MBTL3 52-70 (Homo sapiens, UniProt Q96JM7-2); sequence looked up) | Rbpj 53-474 E260K (Mus musculus, UniProt P31266) | ITC | peptide | pH 6.5, 25 °C, NaCl 150 mM, one site model | – | Kd | 4500 nM |
| CNSRQTDREDELI | – | – | peptide, human polyclonal IgM RF CLAU | concentration not given, 5 µg/mL mAb II-481 coated, together with: RF at 50% max binding concentration | – | inhibition | 0% |
| AR[pT]KQTARKSTGGKA (histone H3 2-16 (UniProt P68431); pT3; pT = C[C@@H](OP(=O)(O)O)[C@H](N)C(=O)O; sequence looked up) | BIRC5 K62A (Homo sapiens, UniProt O15392) | ITC | peptide | pH 7.5, 25 °C, NaCl 100 mM | – | Kd | 10200 ± 1000 nM |
| GVLEKTRHVNILLFMGYST (BRAF 503-521 R506E) | BRAF kinase domain with dimer interface | fluorescence titration | peptide | – | – | Kd | 1090 ± 290 nM |
| RmS-3, glycosylated (Rhipicephalus microplus) | PLAU | chromogenic substrate hydrolysis, inhibitor | – | 1 µM | – | protease inhibition | < 20% |
| AR[pT]KQTARKSTG (H3C1 1-12; pT3; pT = C[C@@H](OP(=O)(O)O)[C@H](N)C(=O)O) | BIRC5 1-142 (Homo sapiens, UniProt O15392) | ITC | peptide | pH 7.2, 25 °C | – | Kd | 2310 ± 80 nM |
| TGTGGCCAGCGAGAGTTGAGGGTGCGCCCCCACAGGTAACACCCACAGATGTGAAAAAACTGTTACCGCGGATATTTCGCGTAACAAAAGCCGGGGCTTACGGTAACGAAGCCCCGGCTTTTTTTGGTCCGTCAAAAACCCGAAACCCCCTCAACCTCCCGGTTTTGCTGG (dsDNA (Pseudomonas fluorescens); blunt) | T1, cbrB residues 1-475 (Pseudomonas fluorescens) | EMSA | double-stranded DNA, one strand shown | – | – | Kd | 6670 ± 310 nM |
| MDHILNKFWILHYAGSGSSG (SPAM peptide del2-5; peptide-RNA fusion) | CD274 ectodomain (Homo sapiens) | radioligand binding | peptide | – | reference: full-length SPAM, higher = more binding | relative binding | < 25% |
| NSRQTDR | – | – | peptide, human polyclonal IgM RF CLAU | concentration not given, 5 µg/mL mAb II-481 coated, together with: RF at 50% max binding concentration | – | inhibition | 0% |
| VLRKTRHVNILLAMG (BRAF 504-518 F516A) | BRAF kinase domain with dimer interface | fluorescence titration | peptide | – | – | Kd | 570 ± 80 nM |
| MLDHILNKFWILHYAGSGSSG (SPAM peptide del2-4; peptide-RNA fusion) | CD274 ectodomain (Homo sapiens) | radioligand binding | peptide | – | reference: full-length SPAM, higher = more binding | relative binding | < 25% |
| GVARKTRHVNILLFMGYST (BRAF 503-521 L505A) | BRAF kinase domain with dimer interface | fluorescence titration | peptide | – | – | Kd | 3890 ± 530 nM |
| melittin | – | CD titration | POPC 90% POPG 10% vesicles | pH 7.0, 25 °C | – | free energy of partitioning | -6.8 kcal/mol |
